Experimental data of several laboratories.
± marks the error that the study gave.

SMILES	test	system	setting	unbound fraction
COc1cc(N2CCC(N3CCN(C)CC3)CC2)ccc1Nc1ncc(Cl)c(Nc2ccccc2P(C)(C)=O)n1		healthy subjects, plasma	ex vivo	8.83%
CC[N+]1(C)CCN(c2ccc(NC(=O)c3cccc(C)n3)cc2)CC1		human plasma		0.68
CCOCC(=O)N1CCC[C@H](C(=O)NCc2nc(-c3ccc(C)nc3)cs2)C1	plasma protein binding	rat plasma		0.069
Cc1ncc(CO)c(C(=O)O)c1O		plasma		0.081 ± 0.0004
Cc1c(OCC(F)(F)F)ccnc1C[S+]([O-])c1nc2ccccc2[nH]1 (stereo not drawn)	plasma protein binding	pig plasma	10 µg/mL	0.03
CCONC(=O)N1CCC[C@H](C(=O)NCc2nc(-c3ccc(C#N)cc3)cs2)C1	plasma protein binding	rat plasma		0.048
CC(C)(C(=O)NC1C2CC3CC1CC(C(N)=O)(C3)C2)N1CCN(c2ccc(C(F)(F)F)cn2)CC1 (stereo not drawn)	in vitro	human plasma		0.022
N#C[C@@]1(c2ccc3c(N)ncnn23)O[C@H](CO)[C@@H](O)[C@H]1O	plasma protein binding	mouse plasma	1 µM	0.963
Nc1ncnc2c1c(Oc1cc(C(F)(F)F)ccn1)nn2C1CC1		mouse brain tissue		10.1%
CO[C@H]1C[C@@H]2CC[C@@H](C)[C@@](O)(O2)C(=O)C(=O)N2CCCC[C@H]2C(=O)O[C@H]([C@H](C)C[C@@H]2CC[C@@H](OC(=O)NCCOCCOCCOCCOCCOCCOCCOCCOCCC(=O)N3CCc4cc(Cn5nc(-c6ccc7oc(N)nc7c6)c6c(N)ncnc65)ccc4C3)[C@H](OC)C2)C[C@@H](O)[C@H](C)/C=C(\C)[C@@H](O)[C@@H](OC)C(=O)[C@H](C)C[C@H](C)/C=C/C=C/C=C/1C	ultracentrifugation	mouse plasma	5 µM	0.004
CN1CCN(c2ccc(C(=O)Nc3n[nH]c4ccc(Cc5cc(F)cc(F)c5)cc34)c(NC3CCOCC3)c2)CC1	rapid equilibrium dialysis	human plasma		0.00254
O=C1N[C@H](c2cncc(C#Cc3ccccc3)c2)[C@@H](c2ccccc2Cl)O1		human plasma		< 0.01
CC(C)c1nc(N(C)S(C)(=O)=O)nc(-c2ccc(F)cc2)c1/C=C/[C@@H](O)C[C@@H](O)CC(=O)O	in vitro	plasma		0.192
COc1cnc(Nc2cnnc3ccc(-c4ccc(N5CCN(C)CC5)cc4)cc23)nc1	equilibrium dialysis	human plasma	10 µM, pH 7.4	0.06
CS(=O)(=O)N1CCN(Cc2cc3nc(-c4cccc5[nH]ncc45)nc(N4CCOCC4)c3s2)CC1		plasma		0.05
Cc1cc(C)c(CNC(=O)c2cc(Cl)c3c(c2C)O[C@@](C)([C@H]2CC[C@H](N(C)C)CC2)O3)c(=O)[nH]1	ultracentrifugation	solution, alpha-1 acid glycoprotein, 0.1%	1000 ng/mL, 160 min	0.0881
Cn1cncc1[C@@](N)(c1ccc(Cl)cc1)c1ccc2c(c1)c(-c1cccc(Cl)c1)cc(=O)n2C		cancer patients, plasma		0.0062
Cc1c(C(=O)O)ccc2c3n(nc12)[C@@H]1[C@H](C3)N(CC2CC2)[C@@]2(C(=O)Nc3cc(Cl)ccc32)[C@H]1c1cccc(Cl)c1F	equilibrium dialysis	human plasma	pH 7.4	0.0022
CN[C@@H](C)C(=O)N[C@H]1CN(C(=O)CC(C)C)CC[C@H]2CC[C@@H](C(=O)NC(c3ccccc3)c3ccccc3)N2C1=O	ultrafiltration	plasma	1 µg/mL, 37 °C	0.185
COc1cc(CC(=O)O)ccc1O		plasma		0.65 ± 0.13
Cc1cc(Nc2ccc(C(F)(F)F)cc2)c2ccccc2n1	rapid equilibrium dialysis	diluted mouse plasma	2 µM	0.03
NCCOCC(=O)N1CCC[C@H](C(=O)NCc2nc(-c3ccc(C(F)(F)F)cc3)cs2)C1	plasma protein binding	human plasma		0.046
CCc1cc(NC(=O)COc2cc(Cl)ccc2Cl)n(C2CCOCC2)n1		human plasma		0.049
COCC(=O)N1CCC[C@H](C(=O)NCc2nc(-c3ccc(C#N)cc3)cs2)C1	plasma protein binding	rat plasma		0.011
Nc1c(CC(=O)O)cccc1C(=O)c1ccc(Br)cc1	in vitro	liver		0.036
COCC(=O)N1CCC[C@H](C(=O)NCc2nc(-c3ccccc3)cs2)C1	plasma protein binding	human plasma		0.006
CC(=O)N1CCN(c2ccc(OCC3COC(Cn4ccnc4)(c4ccc(Cl)cc4Cl)O3)cc2)CC1 (stereo not drawn)	equilibrium dialysis	human plasma	1 µM, 6 h	0.0199
